Published values collected from several papers.
Compare with care: the assays were run in different laboratories. ± gives the spread as reported. Converted amounts (≈) assume the structure as drawn.

SMILES = C[C@H](O)C(=O)C1=Nc2c(nc(N)[nH]c2=O)NC1; system = healthy human volunteers; setting = oral, 20 mg/kg, monotherapy; how to read = baseline: subjects; endpoint = fatal TEAE incidence; value = 0%
SMILES = CC(C)C1CCC(N2CCC(N3C(=O)C(=O)c4ccccc43)CC2)CC1 (stereo not shown); system = conscious Sprague-Dawley rat; setting = intravenous bolus, 30 nmol/kg; endpoint = sedation duration; value = ~30 min
SMILES = O=C1O[C@H]2[C@@H]3OC(=O)c4cc(O)c(O)c(O)c4-c4c(O)c(O)c5oc(=O)c6c(c(O)c(O)c7oc(=O)c4c5c76)-c4c(cc(O)c(O)c4O)C(=O)OC[C@H]3OC(O)[C@@H]2OC(=O)c2cc(O)c(O)c(O)c2-c2c1cc(O)c(O)c2O (mixture of isomers); test = acute oral toxicity; system = BALB/c mice; setting = oral, dose not given; endpoint = liver weight; value = 1.41 g
SMILES = CC[C@H](C)[C@@H]1NC(=O)[C@@H]2CCCN2C(=O)[C@H](CC(C)C)NC(=O)[C@H](CC(C)C)NC(=O)CNC(=O)[C@@H](NC(=O)[C@@H](NC(=O)[C@H](CC(=O)O)NC(=O)CNC(=O)[C@@H](NC(=O)[C@H](C)NC(=O)CNC(=O)[C@H](CCCCN)NC(=O)[C@H](CC(C)C)NC(=O)[C@H](CC(C)C)NC(=O)[C@H](CCCCN)NC(=O)CNC(=O)[C@@H](NC(=O)[C@@H](N)CC(C)C)C(C)C)C(C)C)C(C)C)CSSC[C@@H](C(=O)O)NC1=O; system = female C57BL/6 mice, plasma; setting = intravenous, 10 mg/kg; endpoint = clearance; value = 3.15 ± 0.42 mL/min
SMILES = C[C@@H](NC(=O)N1C(=O)[C@H](Cc2ccnc(N)c2)[C@H]1C(=O)O)C1CCCCC1; system = healthy adult Chinese volunteers; setting = continuous intravenous infusion, 0.3 mg/kg/h, 5-day infusion, CTCAE 5.0 grading; endpoint = incidence of injection site erythema swelling; value = 0%
SMILES = Nc1ncc(-c2nc(N3CCOCC3)nc(N3CCOCC3)n2)c(C(F)F)n1; test = shake flask; system = buffer; setting = 24 h, pH 6.8, 25 °C; endpoint = thermodynamic solubility; value = 3.75 µM (≈ 1.48 µg/mL)
SMILES = N#C[C@@]1(n2ccc(N)nc2=O)O[C@H](CO)[C@@H](O)[C@H]1O; system = mouse CD-1, lung; setting = intravenous, 15 mg/kg, 7 h; endpoint = lung concentration; value = 321 ng/g
SMILES = C[C@@H]1OC(=O)NN=C1c1ccc(-c2ccc(F)cc2)c(C(F)(F)F)c1; test = phase I trial, refers to: Pneumonitis all grades; system = human patients; setting = 10 mg loading then 0.5 mg daily; endpoint = patients with adverse event; value = 0%
SMILES = O=c1ccc2cc3ccoc3cc2o1; test = post-procedure stability; system = rat plasma; setting = 1000 ng/mL, 3 h, room temperature; endpoint = accuracy; value = 107%
SMILES = COc1cc2c(Oc3ccc4[nH]c(C)cc4c3F)ccnc2cc1OCC1(N)CC1; system = paediatric refractory sarcoma patients; setting = 8 mg; endpoint = ALP elevation incidence; value = 0%
SMILES = O=C1Nc2cc3[nH]nc(-c4ccncc4)c3cc2CN1Cc1ccccc1; test = refers to: Dizziness; system = patients with advanced solid tumours; setting = intravenous, dose not given, all schedules; endpoint = patients with TEAE; value = 15%
SMILES = C[C@]1(CO)Cc2ncn(-c3ccc(C#N)c(Cl)c3)c2C(=O)O1; system = human, plasma; setting = 3 mg, first dose fasted; endpoint = half-life; value = 5.2 h
SMILES = Clc1ccc(-c2ccccc2)cc1; system = rat Sprague-Dawley female, serum; setting = inhalation, 35 µg/rat, 24 h; endpoint = serum Triglycerides; value = 48 ± 11 mg/dL
